Measurements from different studies.
Lines come from different studies, so protocols differ. Numbers after ± are the reported error.
Fibroin-modulator-binding protein-1: Fibroin-modulator-binding protein-1 99-193 (Bombyx mori, UniProt Q5FBS0)
SPT15/TOA1/TOA2/SUA7 1-240; 1-286; 1-122; 1-345: SPT15/TOA1/TOA2/SUA7 1-240; 1-286; 1-122; 1-345 (Saccharomyces cerevisiae)
Sequence of UniProt Q13YL3 (whole entry, looked up): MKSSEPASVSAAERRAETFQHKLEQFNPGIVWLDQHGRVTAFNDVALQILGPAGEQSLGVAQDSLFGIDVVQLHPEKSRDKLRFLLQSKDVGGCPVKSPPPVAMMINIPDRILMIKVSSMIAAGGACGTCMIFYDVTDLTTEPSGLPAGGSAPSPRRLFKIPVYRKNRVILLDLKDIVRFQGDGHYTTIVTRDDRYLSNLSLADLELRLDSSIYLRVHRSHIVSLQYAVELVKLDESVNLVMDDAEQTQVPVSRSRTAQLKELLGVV
Sequence of UniProt P42568 (whole entry, looked up): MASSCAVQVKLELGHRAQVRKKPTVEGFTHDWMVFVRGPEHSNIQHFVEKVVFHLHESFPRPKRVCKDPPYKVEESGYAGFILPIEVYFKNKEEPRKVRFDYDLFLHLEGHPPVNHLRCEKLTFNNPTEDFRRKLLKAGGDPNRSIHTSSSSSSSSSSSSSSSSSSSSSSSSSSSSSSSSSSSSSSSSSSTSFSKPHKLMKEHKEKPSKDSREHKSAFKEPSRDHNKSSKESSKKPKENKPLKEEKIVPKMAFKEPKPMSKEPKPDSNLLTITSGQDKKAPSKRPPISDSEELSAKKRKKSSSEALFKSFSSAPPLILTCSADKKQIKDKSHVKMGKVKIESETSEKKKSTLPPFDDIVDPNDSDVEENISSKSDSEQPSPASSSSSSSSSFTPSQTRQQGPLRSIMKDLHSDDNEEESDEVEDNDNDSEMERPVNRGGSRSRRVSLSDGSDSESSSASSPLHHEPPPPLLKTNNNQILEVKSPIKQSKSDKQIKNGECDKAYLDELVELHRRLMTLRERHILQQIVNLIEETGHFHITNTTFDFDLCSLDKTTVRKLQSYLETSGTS
Sequence of UniProt P27695 (whole entry, looked up): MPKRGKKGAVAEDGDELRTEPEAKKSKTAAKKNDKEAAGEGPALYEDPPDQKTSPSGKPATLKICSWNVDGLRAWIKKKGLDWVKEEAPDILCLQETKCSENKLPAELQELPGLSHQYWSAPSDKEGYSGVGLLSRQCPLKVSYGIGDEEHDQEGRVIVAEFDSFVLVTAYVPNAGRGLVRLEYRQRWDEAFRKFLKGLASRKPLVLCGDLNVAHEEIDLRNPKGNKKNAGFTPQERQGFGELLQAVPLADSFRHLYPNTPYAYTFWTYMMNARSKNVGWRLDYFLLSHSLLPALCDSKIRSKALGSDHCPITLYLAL

Molecule	tested on	assay	test system	setting	scale	measurement	value
GGTAGGTAGGTA (dsDNA)	Fibroin-modulator-binding protein-1	ITC	double-stranded DNA, one strand shown			Kd	5270 ± 865 nM
SVWLRKETRV	human MAGI1-2/6 PDZ construct (MBP fusion)	surface plasmon resonance	peptide	concentration not given	higher = stronger binding	normalised SPR binding response	229 normalised RU
CAGACAGACAGA (dsDNA)	Fibroin-modulator-binding protein-1	ITC	double-stranded DNA, one strand shown			Kd	6610 nM
DNA 1 TGGGTGGGTAGGGTGGGTAGGGGAGGAT / DNA 2 ATCCTCCCCTA (DNA; intramolecular parallel G4, 5' overhang, 11-bp duplex)	REV1 330-833 N497S (Homo sapiens, UniProt Q9UBZ9)	FP	folded DNA	KCl 100 mM		Kd	6.9 ± 2.3 nM
AGGCAGGCAGGC (dsDNA)	Fibroin-modulator-binding protein-1	ITC	double-stranded DNA, one strand shown			Kd	7750 nM
RNA 1 CCGGGCGGGCGGGAGGGAC / RNA 2 GGCCUCCGGCCCCCCCG (dsRNA (Homo sapiens); duplex with bulges)	APEX1 full length assumed (Homo sapiens, UniProt P27695)	fluorescence titration	double-stranded RNA	without Mg2+, added: none		K1/2	400 ± 90 nM
AAAUGAGGCGCUGCAUGUGGCAGUCUGCCUUUCUUU (structured RNA)	MLLT3 1-140 (Homo sapiens, UniProt P42568)	competition with labeled RNA, fluorescence polarization	folded RNA			Ki	21 ± 1 nM
CGGGTTTCATGTACGTTTTCCGCTAGTTGGCGCGCGTGAACCCGCCGTTCGGGAAATTGCGT (dsDNA; blunt)	rcoM1 full length assumed (Paraburkholderia xenovorans, UniProt Q13YL3)	fluorescence anisotropy	double-stranded DNA, one strand shown	Fe(II)-CO, Hill coefficient		K1/2	250 ± 10 nM
GGGAGAACUUCGACCAGAAGUCCUAAGAUGCGUUAACAUUACGUAAGAAUCUACCUACCUAUGUGCGCAUACAUGGAUCCUC (ssRNA; 2'-fluoro pyrimidines)	integrin alphaV/beta3 31-992/27-718 (Homo sapiens)	SPR	RNA	added: MnCl2 1 mM	higher = more binding	relative binding	3.5 RU
GAATTCCTGTAAAGTAATGTGGAGCTCCGTTCGTCTCAAGTCAATCGGTCC (dsDNA; 5'-amino-C6 primer)	SPT15/TOA1/TOA2/SUA7 1-240; 1-286; 1-122; 1-345	array	double-stranded DNA, one strand shown	TBP:TFIIA:TFIIB ternary complex		Kd	3.75 ± 0.98 nM
GCGCGCGCGCGC (dsDNA)	Fibroin-modulator-binding protein-1	ITC	double-stranded DNA, one strand shown			Kd	6610 nM
GSGAGKETYY	human SCRIB PDZ3-4 tandem (MBP fusion)	automated holdup	peptide, purified PDZ protein	concentration not given, unit not given	baseline: biotin control resin, higher = stronger binding	binding intensity	-0.00453
GGGAGAACUUCGACCAGAAGUAAGACGCACCAUAACUACGCAAGAGUUCUCUCUGCCUGAUAUGUGCGCAUACAUGGAUCCUC (ssRNA; 2'-fluoro pyrimidines)	integrin alphaV/beta3 31-992/27-718 (Homo sapiens)	SPR	RNA	added: MnCl2 1 mM	higher = more binding	relative binding	18.2 RU
ATGACTGAATTCAAGGCCGGTTCTGCTAAGAAAGGTCAAGTCAATCGGTCC (dsDNA; 5'-amino-C6 primer)	SPT15/TOA1/TOA2/SUA7 1-240; 1-286; 1-122; 1-345	array	double-stranded DNA, one strand shown	TBP:TFIIA:TFIIB ternary complex		Kd	1.12 ± 0.12 nM
ATTATGTCGTTGGATTTATTT (ssDNA; single-stranded)	APOBEC3B 187-382 E255A (Homo sapiens, UniProt Q9UH17)	competitive fluorescence polarization	single-stranded DNA			IC50	1000 ± 100 nM
GTTAGTTAGTTA (dsDNA)	Fibroin-modulator-binding protein-1	ITC	double-stranded DNA, one strand shown			Kd	1520 ± 66.9 nM
epoetin alfa	UT7/EPO	microarray, refers to: EGR3 (probe 206115_at)		5 U/mL, 90 min, added: SCF 10 nM	baseline: vehicle	mRNA level	11.8 fold

Molecule	tested on	assay	test system	setting	scale	measurement	value
GGGAGAACUUCGACCAGAAGGACAUCUACGCAAAAGUGUUCCCCUGCCUGAUGUGACAAAUAUGUGCGCAUACAUGGAUCCUC (ssRNA; 2'-fluoro pyrimidines)	integrin alphaV/beta3 31-992/27-718 (Homo sapiens)	SPR	RNA	added: MnCl2 1 mM	higher = more binding	relative binding	83.2 RU
ACTAACTAACTA (dsDNA)	Fibroin-modulator-binding protein-1	ITC	double-stranded DNA, one strand shown			Kd	635 ± 36.2 nM
TCCTGAAGGGGCGCCCTAGCTTGGTCCTATCGTCGTCAAGTCAATCGGTCC (dsDNA; 5'-amino-C6 primer)	SPT15/TOA1/TOA2/SUA7 1-240; 1-286; 1-122; 1-345	array	double-stranded DNA, one strand shown	TBP:TFIIA:TFIIB ternary complex		Kd	1.71 ± 0.31 nM
GGGAGAACUUCGACCAGAAGUUAUCACCCCUGCACAUUACGCAAAAGUAUUAUCCCUGCCUAUGUGCGCAUACAUGGAUCCUC (ssRNA; 2'-fluoro pyrimidines)	integrin alphaV/beta3 31-992/27-718 (Homo sapiens)	SPR	RNA	added: MnCl2 1 mM	higher = more binding	relative binding	57.2 RU
CAAATGTATGCACCATATCCATTCTAAACATAGTTTCAAGTCAATCGGTCC (dsDNA; 5'-amino-C6 primer)	SPT15/TOA1/TOA2/SUA7 1-240; 1-286; 1-122; 1-345	array	double-stranded DNA, one strand shown	TBP:TFIIA:TFIIB ternary complex		Kd	1.62 ± 0.48 nM
colistin	Enterobacter cloacae	broth microdilution	clinical isolate RKI-No_243/15			MIC	4 µg/mL
GTTCCTGAAGGGGGGGCTATAAAACGGGGTGGGGGTCAAGTCAATCGGTCC (dsDNA; 5'-amino-C6 primer)	SPT15/TOA1/TOA2/SUA7 1-240; 1-286; 1-122; 1-345	array	double-stranded DNA, one strand shown	TBP:TFIIA:TFIIB ternary complex		Kd	1.62 ± 0.15 nM
GGGAGAACUUCGACCAGAAGACCAAUAACCGUUCACAUUACGCAUCAACUCAACCUGCCUAUGUGCGCAUACAUGGAUCCUC (ssRNA; 2'-fluoro pyrimidines)	integrin alphaV/beta3 31-992/27-718 (Homo sapiens)	SPR	RNA	added: MnCl2 1 mM	higher = more binding	relative binding	18.6 RU
TGGTATAAAGATCAATCGAGAATTCCTGGTATGGATCAAGTCAATCGGTCC (dsDNA; 5'-amino-C6 primer)	SPT15/TOA1/TOA2/SUA7 1-240; 1-286; 1-122; 1-345	array	double-stranded DNA, one strand shown	TBP:TFIIA:TFIIB ternary complex		Kd	1.52 ± 0.19 nM
DNA 1 CACTGGCCGTCTTACGGTCGCTCTGCTCGACG / DNA 2 CGACCGTAAGACGGCCAGTG (dsDNA; 20 bp, 3' 12 nt overhang)	RECQL 63-592 K514A (Bos taurus, UniProt A0JN36)	fluorescence anisotropy	double-stranded DNA	added: Mg2+ 3 mM		Kd	19 ± 2.6 nM
TCCTGAAGGGGCGACTATAAAAGGTCCTATCGTCGTCAAGTCAATCGGTCC (dsDNA; 5'-amino-C6 primer)	SPT15/TOA1/TOA2/SUA7 1-240; 1-286; 1-122; 1-345	array	double-stranded DNA, one strand shown	TBP:TFIIA:TFIIB ternary complex		Kd	3.08 ± 1 nM
GGGAGAACUUCGACCAGAAGUCGGAAGCGAUCCGAACAUUACGCAAAACACCUCCCUGCCUAUGUGCGCAUACAUGGAUCCUC (ssRNA; 2'-fluoro pyrimidines)	integrin alphaV/beta3 31-992/27-718 (Homo sapiens)	SPR	RNA	added: MnCl2 1 mM	higher = more binding	relative binding	75.1 RU
CTGAAGGGGGGGCTATAAAAGGGGGTGGGGGCTCCTCAAGTCAATCGGTCC (dsDNA; 5'-amino-C6 primer)	SPT15/TOA1/TOA2/SUA7 1-240; 1-286; 1-122; 1-345	array	double-stranded DNA, one strand shown	TBP:TFIIA:TFIIB ternary complex		Kd	1.48 ± 0.16 nM
GGGAGAACUUCGACCAGAAGUCCUUGCCACCGUCUCACAUUACGCUAAAUCUCUCCAGCCUAUGUGCGCAUACAUGGAUCCUC (ssRNA; 2'-fluoro pyrimidines)	integrin alphaV/beta3 31-992/27-718 (Homo sapiens)	SPR	RNA	added: MnCl2 1 mM	higher = more binding	relative binding	39.1 RU
GAGAGAGAGAGA (dsDNA)	Fibroin-modulator-binding protein-1	ITC	double-stranded DNA, one strand shown			Kd	4680 ± 499 nM
GGGAGAACUUCGACCAGAAGUAGAUGUCUUAACGCACAUUACGCAAACACACCUCCUGCCUAUGUGCGCAUACAUGGAUCCUC (ssRNA; 2'-fluoro pyrimidines)	integrin alphaV/beta3 31-992/27-718 (Homo sapiens)	SPR	RNA	added: MnCl2 1 mM	higher = more binding	relative binding	88.5 RU
GGAGGGAGGGAG (dsDNA)	Fibroin-modulator-binding protein-1	ITC	double-stranded DNA, one strand shown			Kd	4750 nM

A few entries again:
Molecule	tested on	assay	test system	setting	scale	measurement	value
TCCTGAAGGGGCGCCCTAGCTTGGTCCTATCGTCGTCAAGTCAATCGGTCC (dsDNA; 5'-amino-C6 primer)	SPT15/TOA1/TOA2/SUA7 1-240; 1-286; 1-122; 1-345	array	double-stranded DNA, one strand shown	TBP:TFIIA:TFIIB ternary complex		Kd	1.71 ± 0.31 nM
GGGAGAACUUCGACCAGAAGUUAUCACCCCUGCACAUUACGCAAAAGUAUUAUCCCUGCCUAUGUGCGCAUACAUGGAUCCUC (ssRNA; 2'-fluoro pyrimidines)	integrin alphaV/beta3 31-992/27-718 (Homo sapiens)	SPR	RNA	added: MnCl2 1 mM	higher = more binding	relative binding	57.2 RU
CAAATGTATGCACCATATCCATTCTAAACATAGTTTCAAGTCAATCGGTCC (dsDNA; 5'-amino-C6 primer)	SPT15/TOA1/TOA2/SUA7 1-240; 1-286; 1-122; 1-345	array	double-stranded DNA, one strand shown	TBP:TFIIA:TFIIB ternary complex		Kd	1.62 ± 0.48 nM
